Measurements of several laboratories.
Compare with care: the assays were run in different laboratories.
Target: Cytoplasmic tyrosine-protein kinase BMX (BMX, Homo sapiens, UniProt P51813)
Residues used in one study (P51813 1-675): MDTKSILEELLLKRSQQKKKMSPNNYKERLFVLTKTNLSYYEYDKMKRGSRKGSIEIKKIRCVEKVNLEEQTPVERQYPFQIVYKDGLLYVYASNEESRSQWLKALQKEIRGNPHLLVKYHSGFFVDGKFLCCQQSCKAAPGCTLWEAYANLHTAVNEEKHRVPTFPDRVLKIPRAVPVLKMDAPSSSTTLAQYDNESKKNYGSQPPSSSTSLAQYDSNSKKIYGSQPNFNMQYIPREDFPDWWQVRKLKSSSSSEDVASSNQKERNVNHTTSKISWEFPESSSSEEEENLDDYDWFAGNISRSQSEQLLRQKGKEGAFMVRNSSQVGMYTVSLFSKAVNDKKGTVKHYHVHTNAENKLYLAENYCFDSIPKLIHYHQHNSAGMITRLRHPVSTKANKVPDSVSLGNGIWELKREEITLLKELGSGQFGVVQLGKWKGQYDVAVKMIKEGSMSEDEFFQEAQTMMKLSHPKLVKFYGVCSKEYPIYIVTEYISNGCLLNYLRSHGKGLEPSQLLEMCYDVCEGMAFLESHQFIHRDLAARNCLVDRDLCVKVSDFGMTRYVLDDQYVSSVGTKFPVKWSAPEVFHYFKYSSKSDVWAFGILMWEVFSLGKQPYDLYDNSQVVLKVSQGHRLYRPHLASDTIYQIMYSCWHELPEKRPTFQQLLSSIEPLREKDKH

With `COc1cc(Nc2nccc(-c3cnn4nc(OC)ccc34)n2)cc(C(F)(F)F)c1` the remaining binding was 100% (binding, competition with immobilised ligand; 1 µM).
`O=C(Cc1ccc(OCc2ccccc2)cc1)NC1(C(=O)O)CCN(C(=O)c2ccc(-c3cccc(Cl)c3)cc2)CC1` — result for “activity vs control”: 124% (enzyme activity, inhibitor; 10 µM).
For `O=c1c(-c2ccc(Cl)c(CN3CCOCC3)c2)coc2cc(O)ccc12`, the remaining activity was 91% (enzyme activity, inhibitor; 1 µM).
For `Nc1ncc(-c2cc(-c3cnn(CC(F)(F)F)c3)ncc2F)nc1C(=O)NC1CNCC(F)C1` (stereo not drawn), the remaining activity was 85.2% (enzyme activity; 1 µM; reference: DMSO control).
`COc1c(OCCCN2CCOCC2)ccc2c1N=C(NC(=O)c1cnc(N)nc1)N1CCN=C21` gave a remaining activity of 85% (kinase activity, inhibitor; 1 µM; reference: untreated control).
`CNC(=O)C[C@H](Cc1ccc(C#N)cc1)NC(=O)c1cc(-c2ccc(CN[C@H](C)c3ccc(C)cc3)o2)ccc1Cl`: “activity vs control” 92% (enzyme activity, inhibitor; 1 µM).
With `C=CC(=O)Nc1cccc(-c2cnc3[nH]cc(C(=O)NC(C)(C)C)c3n2)c1` the inhibition was 68% (enzyme activity, inhibitor; 0.1 µM).
`NC(=O)C[C@H]1CCc2sc3ncnc(O[C@H]4CC[C@H](N5CCOCC5)CC4)c3c21` gave an inhibition of 2% (enzyme activity, inhibitor; 10 µM).
For `COc1ccc(NC(=O)Nc2ccc3c(c2)C(=O)N(C(C)CO)CC(C)C(CN(C)Cc2ccc4c(c2)OCO4)O3)cc1` (stereo not drawn), the remaining activity was 95% (kinase activity; 0.03 µM; reference: control).
`CN1CCN(Cc2ccc(-c3ccc(CO[C@H]4CCC[C@@H]4NC(=O)c4cc(-c5cnn(C)c5)cnc4N)cc3)cc2)CC1` gave an inhibition of 4% (enzyme activity, inhibitor; 0.1 µM).
`CCN1CCN(Cc2ccc(C(=O)Nc3ccc(C)c(NCc4cnc5[nH]ccc5c4OC)c3)cc2C(F)(F)F)CC1` gave a remaining binding of 5% (binding, competition with immobilised ligand; 1 µM).
With `Cc1cccc(O[C@H]2CCC[C@@H](C(C)CNCc3ccncc3)C2)c1` (relative stereo) the inhibition was 2% (enzyme activity, inhibitor; 1 µM).
`CCN1CCN(Cc2ccc(NC(=O)c3ccc(C)c(NC(=O)c4cncc(-c5cccs5)c4)c3)cc2C(F)(F)F)CC1` has a remaining binding of 0.35% (binding, competition with immobilised ligand; 1 µM).
`CNC1C[S+]2CC[S+]3CC[S+](C1)[Ru-4]321([N]=C=S)[n]2c3ccc(OC)cc3c3c4c(c5cc(F)c[n+]1c5c32)C(=O)NC4=O` (stereo not drawn) gave a remaining binding of 84% (KinomeScan; 0.1 µM; reference: untreated).
The remaining binding of `Cc1ccc(-c2c(/C=C(\C#N)C(=O)NC(C)C)n(CCCO)c3ncnc(N)c23)cc1` is reported as 100% (cell-free assay, competition with immobilised ligand; 1 µM).

Repeated from above:
`CN1CCN(Cc2ccc(-c3ccc(CO[C@H]4CCC[C@@H]4NC(=O)c4cc(-c5cnn(C)c5)cnc4N)cc3)cc2)CC1` gave an inhibition of 4% (enzyme activity, inhibitor; 0.1 µM).
For `O=c1c(-c2ccc(Cl)c(CN3CCOCC3)c2)coc2cc(O)ccc12`, the remaining activity was 91% (enzyme activity, inhibitor; 1 µM).
